Results from different studies.
Each line is one published result; not all experiments were run side by side. ± gives the spread as reported.

| Compound | assay | test system | conditions | scale | measurement | result |
| --- | --- | --- | --- | --- | --- | --- |
| CCCC[C@H](NC(=O)[C@@H](NC(=O)[C@H](CC(=O)O)NC(=O)[C@H](CCC(N)=O)NC(=O)[C@H](CC(C)C)NC(=O)[C@H](CC(C)C)NC(=O)[C@H](CCCN)NC(=O)[C@H](CCCNC(=N)N)NC(=O)[C@H](C)NC(=O)[C@H](CO)NC(=O)[C@H](CC(C)C)NC(=O)[C@H](CCC(N)=O)NC(=O)[C@H](CC)NC(=O)[C@H](CC(C)C)NC(=O)[C@@H](NC(=O)[C@H](CCCN)NC(=O)[C@H](CCCNC(=N)N)NC(=O)[C@H](Cc1ccc(O)cc1)NC(=O)[C@H](CO)NC(=O)[C@H](CC(N)=O)NC(=O)[C@@H](NC(=O)[C@H](Cc1c(F)c(F)c(F)c(F)c1F)NC(=O)[C@@H](NC(=O)[C@H](C)NC(=O)[C@H](CC(=O)O)NC(=O)[C@@H](C)NC(=O)CCc1ccc(O)cc1)[C@@H](C)CC)[C@@H](C)O)C(C)C)[C@@H](C)CC)C(=O)N[C@@H](CO)C(=O)N[C@@H](CCCNC(=N)N)C(=O)NCCCC(N)=O | GH release, ELISA | male Sprague-Dawley rat, anaesthetised, serum | subcutaneous, 3 µg/kg, 30 min | – | serum GH level | 153 ± 33.3 ng/mL |
| CCCCCCCCCCCCCCc1sc(NC(=O)CN2CCC(O)CC2)nc1-c1ccccc1 | – | – | 0.1 mM, 1 h | – | DPPH radical scavenging | 29.8% |
| CCOP(=O)(CC(=O)Nc1ccc(S(=O)(=O)N(CC(N)=O)c2ccc(N(CC(N)=O)S(=O)(=O)c3ccc(OC)cc3)c3ccccc23)cc1)OCC | western blot, refers to: nuclear Nrf2 | normal mice, hippocampus and cortex | oral, 40 mg/kg once daily, 60 days | – | protein level | increased |
| CCCC[C@H](NC(=O)[C@@H](NC(=O)[C@H](CC(=O)O)NC(=O)[C@H](CCC(N)=O)NC(=O)[C@H](CC(C)C)NC(=O)[C@H](CC(C)C)NC(=O)[C@H](CCCN)NC(=O)[C@H](CCCNC(=N)N)NC(=O)[C@H](C)NC(=O)[C@H](CO)NC(=O)[C@H](CC(C)C)NC(=O)[C@H](CCC(N)=O)NC(=O)[C@H](CC)NC(=O)[C@H](CC(C)C)NC(=O)[C@@H](NC(=O)[C@H](CCCN)NC(=O)[C@H](CCCNC(=N)N)NC(=O)[C@H](Cc1ccc(O)cc1)NC(=O)[C@H](CO)NC(=O)[C@H](CC(N)=O)NC(=O)[C@@H](NC(=O)[C@H](Cc1ccccc1)NC(=O)[C@@H](NC(=O)[C@H](C)NC(=O)[C@H](CC(=O)O)NC(=O)[C@@H](C)NC(=O)[C@H](Cc1ccc(O)cc1)NC)[C@@H](C)CC)[C@@H](C)O)C(C)C)[C@@H](C)CC)C(=O)N[C@@H](CC(=O)O)C(=O)N[C@@H](CCCNC(=N)N)C(=O)NCC | GH release, ELISA | male Sprague-Dawley rat, anaesthetised, serum | subcutaneous, 3 µg/kg, 15 min | – | serum GH level | 252 ± 33.3 ng/mL |
| Cc1cc(O)c(C=O)c2c1C(=O)Oc1c(CO)c(O)c3c(c1O2)C(O)OC3=O (centres unmarked) | – | streptozotocin-diabetic male albino rats, serum | dose not given, 9 weeks | reference: diabetic control | reactive oxygen species level | decreased |
| COc1c2c(cc3oc(C)cc(=O)c13)O[C@H](C(C)(C)O[C@@H]1O[C@H](CO)[C@@H](O)[C@H](O)[C@H]1O)C2 | – | mouse, xylene ear edema | oral, 4 mg/kg | – | ear edema weight increase | 6.13 ± 0.25 mg |
| Cc1ccc(-c2oc3ccccc3c(=O)c2OCc2ccccc2)cc1 | – | diabetic rat | 7.5 mg/kg, 28 days, p-nitrophenyl β-glucoside induced | – | serum HDL cholesterol | 44.1 ± 1.84 mg/dL |
| COc1ccc2c(c1)c(CC(=O)OCC(=O)c1ccccc1)c(C)n2C(=O)c1ccc(Cl)cc1 | hot plate test | BALB/c mice | 100 mg/kg, 0 min | – | latency of nociceptive response | 10.8 ± 0.58 s |
| CC(C)(O)c1ccc(N2Cc3c(ccnc3-c3ccc(F)cc3OCC(F)(F)F)C2=O)cc1 | – | Gaucher disease mouse model, brain | 10 mg/kg, 2 months once daily | reference: vehicle | glucosylsphingosine level | 73 ± 6% |
| CCCC[C@H](NC(=O)[C@@H](NC(=O)[C@H](CC(=O)O)NC(=O)[C@H](CCC(N)=O)NC(=O)[C@H](CC(C)C)NC(=O)[C@H](CC(C)C)NC(=O)[C@H](CCCN)NC(=O)[C@H](CCCNC(=N)N)NC(=O)[C@H](C)NC(=O)[C@H](CO)NC(=O)[C@H](CC(C)C)NC(=O)[C@H](CCC(N)=O)NC(=O)[C@H](CC)NC(=O)[C@H](CC(C)C)NC(=O)[C@@H](NC(=O)[C@H](CCCN)NC(=O)[C@H](CCCNC(=N)N)NC(=O)[C@H](Cc1ccc(O)cc1)NC(=O)[C@H](CO)NC(=O)[C@H](CCC(N)=O)NC(=O)[C@@H](NC(=O)[C@H](Cc1ccccc1)NC(=O)[C@@H](NC(=O)[C@H](C)NC(=O)[C@H](CC(=O)O)NC(=O)[C@@H](C)NC(=O)[C@H](Cc1ccc(O)cc1)NC)[C@@H](C)CC)[C@@H](C)O)C(C)C)[C@@H](C)CC)C(=O)N[C@@H](CC(=O)O)C(=O)N[C@@H](CCCNC(=N)N)C(=O)NCCCCC(N)=O | GH release, ELISA | male Sprague-Dawley rat, anaesthetised, serum | subcutaneous, 3 µg/kg, 15 min | – | serum GH level | 309 ± 33.5 ng/mL |
| COc1cc(C(=O)OCCCN2CCCN(CCCOC(=O)c3cc(OC)c(OC)c(OCc4ccc([N+](=O)[O-])cc4)c3)CC2)cc(OC)c1OC | – | mouse, SNI neuropathic pain | peri-sciatic nerve, 10 nmol | – | cold pain | decreased |
| CCC1CC2C(C)=CC3C(=O)CCCC3C=CC(C)=CC2C(=O)O1 (centres unmarked) | thioflavin S staining | 5XFAD transgenic mouse, hippocampus | oral gavage, 30 mg/kg/day, 5 days | reference: untreated | Aβ plaque number reduction | 18.9% |
| CN(C)c1ccc(-c2oc3ccccc3c(=O)c2OCc2ccccc2)cc1 | – | diabetic rat | 7.5 mg/kg, 28 days, p-nitrophenyl β-glucoside induced | – | serum LDL cholesterol | 110 ± 3.31 mg/dL |
| CC[C@H]1[C@@H](O)[C@@H]2[C@H](CC[C@]3(C)[C@@H]([C@H](C)CCOS(=O)(=O)[O-])CC[C@@H]23)[C@@]2(C)CC[C@@H](O)C[C@@H]12.[Na+] | EchoMRI | ob/ob NASH mouse model | oral, 10 mg/kg once daily, before treatment, baseline of 8 week study | – | whole-body fat mass | 19.5 ± 0.7 g |
| CCCC[C@H](NC(=O)[C@@H](NC(=O)[C@H](CC(=O)O)NC(=O)[C@H](CCC(N)=O)NC(=O)[C@H](CC(C)C)NC(=O)[C@H](CC(C)C)NC(=O)[C@H](CCCN)NC(=O)[C@H](CCCNC(=N)N)NC(=O)[C@H](C)NC(=O)[C@H](CO)NC(=O)[C@H](CC(C)C)NC(=O)[C@H](CCC(N)=O)NC(=O)[C@H](CC)NC(=O)[C@H](CC(C)C)NC(=O)[C@@H](NC(=O)[C@H](CCCN)NC(=O)[C@H](CCCNC(=N)N)NC(=O)[C@H](Cc1ccc(O)cc1)NC(=O)[C@H](CO)NC(=O)[C@H](CC(N)=O)NC(=O)[C@@H](NC(=O)[C@H](Cc1ccccc1)NC(=O)[C@@H](NC(=O)[C@H](C)NC(=O)[C@H](CC(=O)O)NC(=O)[C@@H](CC)NC(=O)CCc1ccc(O)cc1)[C@@H](C)CC)[C@@H](C)O)C(C)C)[C@@H](C)CC)C(=O)N[C@@H](CO)C(=O)N[C@@H](CCCNC(=N)N)C(=O)NCCCC(N)=O | GH release, ELISA | male rat, anaesthetised, serum | intravenous, 1 µg/kg, 5 min | – | serum GH level | 832 ± 214 ng/mL |
| Cc1cccc(Cn2ncc3c4cc(F)c(CN(C)C)cc4n(C)c3c2=O)n1 | – | rd10 mouse, retina | intraperitoneal, 50 mg/kg at P14, P21 | – | CD11b+/Iba1+ mononuclear phagocytes | decreased |

| Compound | assay | test system | conditions | scale | measurement | result |
| --- | --- | --- | --- | --- | --- | --- |
| Cc1ncc2c(n1)CN(C(=O)Nc1nc(-c3cccs3)ccc1N)C2 | – | wild type mouse, hippocampal CA1 | oral, 0.1 or 0.3 mg/kg daily, 14 days | reference: vehicle | dendritic spine density | no effect |
| COc1ccc(-c2oc3ccccc3c(=O)c2OCc2ccccc2)cc1 | – | diabetic rat | 5 mg/kg, 28 days, p-nitrophenyl β-glucoside induced | – | serum total cholesterol | 125 ± 4.92 mg/dL |
| COc1ccc(-c2nnc(COc3cc(-c4nc5ccccc5s4)ccc3OC)o2)cc1OC | actophotometer | mouse | 100 mg/kg, 5 min | reference: before treatment | locomotor activity reduction | 2.68% |
| COc1ccc2c(c1OCc1ccccc1)C[C@@H](C(=O)O)N(c1nc3ccc(C#N)cc3o1)C2 | von Frey | rat, chronic constriction injury | oral, 30 and 60 mg/kg | – | duration of action | ~2 h |
| COC(=O)N[C@H]1CC[C@@H](Nc2cc(NCc3ccccc3F)n3ncc(C(C)C)c3n2)CC1 | Western blot, refers to: phospho-Rb, phospho-Ser2 and phospho-Ser5 RNA polymerase II | mice with HCT-116 xenograft | 30 mg/kg per day, 14 days | reference: vehicle | protein phosphorylation | decreased |
| CCc1nnc(NS(=O)(=O)c2ccc(NC(=S)NC(=O)/C=C/c3ccc(F)cc3)cc2)s1 | – | NXS2 allograft, A/J mice | intraperitoneal, 20 mg/kg daily, 3 weeks | reference: vehicle | allograft weight | ~63% |
| CCCCCCCCCCCCCCCC(=O)N[C@@H](CCC(=O)NCCCC[C@H](NC(=O)[C@H](CC(=O)O)NC(=O)[C@H](CO)NC(=O)[C@@H](NC(=O)[C@H](Cc1ccccc1)NC(=O)[C@@H](NC(=O)CNC(=O)[C@H](CCC(N)=O)NC(=O)[C@H](CO)NC(=O)[C@@H](N)Cc1c[nH]cn1)[C@@H](C)O)[C@@H](C)O)C(=O)N[C@@H](CO)C(=O)N[C@@H](CCC(=O)O)C(=O)N[C@@H](Cc1ccc(O)cc1)C(=O)N[C@@H](CC(C)C)C(=O)N[C@@H](CC(=O)O)C(=O)N[C@@H](CO)C(=O)N[C@@H](CCC(=O)O)C(=O)N[C@@H](CCCNC(=N)N)C(=O)N[C@@H](C)C(=O)N[C@@H](CCCNC(=N)N)C(=O)N[C@@H](CC(=O)O)C(=O)N[C@@H](Cc1ccccc1)C(=O)N[C@H](C(=O)N[C@@H](C)C(=O)N[C@@H](Cc1c[nH]c2ccccc12)C(=O)N[C@@H](CC(C)C)C(=O)N[C@@H](CCC(=O)O)C(=O)N[C@@H](C)C(=O)NCC(=O)NCC(=O)O)C(C)C)C(=O)O | – | female cynomolgus monkey | subcutaneous, 8 nmol/kg/day for 8 weeks, day 57 | reference: starting body weight | body weight loss | 5% |
| Cc1ncc([N+](=O)[O-])n1CCOCc1nnc(SCC(=O)c2ccc(O)cc2)o1 | – | – | 75 µg/mL, 45 min | – | DPPH scavenging | 56.24 ± 0.37% |
| C=C(c1ccc(C(=O)O)c(F)c1)c1cc2c(cc1C)C(C)(C)C=CC2(C)C | RNA sequencing, refers to: Ifit3 mRNA | rat, brain | dose not given, 24 h, single dose | reference: vehicle | log2 fold change | -0.37 |
| Nn1c(S)nnc1CCN(c1ccccc1)S(=O)(=O)c1ccccc1 | tail flick, radiant heat | rat | 200 mg/kg | – | analgesic protection | 113% |
| O=c1c(OCc2ccccc2)c(-c2ccc([N+](=O)[O-])cc2)oc2ccccc12 | – | diabetic rat | 7.5 mg/kg, 28 days, p-nitrophenyl β-glucoside induced | – | serum LDL cholesterol | 135 ± 4.09 mg/dL |
| CCCOC(=O)Cc1c(C)n(C(=O)c2ccc(Cl)cc2)c2ccc(OC)cc12 | acetic acid writhing test | BALB/c mouse | intraperitoneal, 10 mg/kg | reference: negative control | analgesia | 58.6% |
| NS(=O)(=O)NCC(O)c1ccccc1F (centres unmarked) | MES seizures | rat | oral | – | ED50 | 50 mg/kg |
| CCOC(=O)CCC(NC(=O)C(NC(=O)c1c(C)nn(-c2cc[nH]c(=O)c2)c1C)C(C)C)C(=O)OCC (centres unmarked) | single-cell RNA sequencing | intratumoral CD45+ immune cells, C57BL/6 mice, B16-F10 tumour | dose not given, with: anti-PD-L1 | reference: enantiomer | CD8 T cell cluster share | increased |
| CCCCCCCOC(=O)Cc1c(C)n(C(=O)c2ccc(Cl)cc2)c2ccc(OC)cc12 | acetic acid writhing test | BALB/c mouse | intraperitoneal, 20 mg/kg | reference: negative control | analgesia | 63.5% |
| COc1cc(F)c([C@@H]2CNC(=O)[C@H]2NC(=O)Nc2ccccc2)c(F)c1 | flow cytometry | mouse, myocardial infarction (LAD ligation), heart | 3 mg/kg, 72 h | reference: vehicle | CD206+ of CD64+ macrophages | 30% |

For quick reference, copied from above:
| Compound | assay | test system | conditions | scale | measurement | result |
| --- | --- | --- | --- | --- | --- | --- |
| CCOC(=O)CCC(NC(=O)C(NC(=O)c1c(C)nn(-c2cc[nH]c(=O)c2)c1C)C(C)C)C(=O)OCC (centres unmarked) | single-cell RNA sequencing | intratumoral CD45+ immune cells, C57BL/6 mice, B16-F10 tumour | dose not given, with: anti-PD-L1 | reference: enantiomer | CD8 T cell cluster share | increased |
| Cc1ccc(-c2oc3ccccc3c(=O)c2OCc2ccccc2)cc1 | – | diabetic rat | 7.5 mg/kg, 28 days, p-nitrophenyl β-glucoside induced | – | serum HDL cholesterol | 44.1 ± 1.84 mg/dL |
| COc1ccc(-c2nnc(COc3cc(-c4nc5ccccc5s4)ccc3OC)o2)cc1OC | actophotometer | mouse | 100 mg/kg, 5 min | reference: before treatment | locomotor activity reduction | 2.68% |
| COc1cc(F)c([C@@H]2CNC(=O)[C@H]2NC(=O)Nc2ccccc2)c(F)c1 | flow cytometry | mouse, myocardial infarction (LAD ligation), heart | 3 mg/kg, 72 h | reference: vehicle | CD206+ of CD64+ macrophages | 30% |
